Published values gathered from unrelated publications.
Each line is one published result; not all experiments were run side by side. Numbers after ± are the reported error.
Target: Cytochrome P450 3A4 (CYP3A4, Homo sapiens, UniProt P08684)
Sequence of UniProt P08684 (whole entry, looked up): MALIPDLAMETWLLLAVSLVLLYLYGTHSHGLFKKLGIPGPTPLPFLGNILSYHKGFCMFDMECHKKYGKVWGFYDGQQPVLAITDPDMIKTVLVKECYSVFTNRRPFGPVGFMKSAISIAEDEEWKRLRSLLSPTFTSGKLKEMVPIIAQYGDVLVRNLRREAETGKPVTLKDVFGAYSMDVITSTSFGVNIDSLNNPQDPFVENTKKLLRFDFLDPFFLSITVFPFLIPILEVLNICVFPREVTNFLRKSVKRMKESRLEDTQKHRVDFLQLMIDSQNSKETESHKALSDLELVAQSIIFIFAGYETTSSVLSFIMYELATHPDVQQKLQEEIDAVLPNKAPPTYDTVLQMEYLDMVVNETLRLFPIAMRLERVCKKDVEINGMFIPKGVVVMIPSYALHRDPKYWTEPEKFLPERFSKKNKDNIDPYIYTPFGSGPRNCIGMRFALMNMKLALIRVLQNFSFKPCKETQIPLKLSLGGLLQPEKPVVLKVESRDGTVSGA

SMILES	test	system	conditions	scale	measurement	value
CNC(=O)Oc1cc(C)c([S+](C)[O-])c(C)c1 (stereo not drawn)		human liver microsomes	2 µM, pH 7.4, together with: midazolam		inhibition	< 0%
CC(=O)OC1(C(C)=O)CCC2C3C=C(CO)C4=CC(=O)CCC4(C)C3CCC21C (stereo not drawn)	substrate	recombinant enzyme	28 µM, 25 min		formation rate	4.5 ± 0.3 pmol/min/pmol P450
Nc1nc(Nc2ccc(Cl)cc2)nn1S(=O)(=O)c1ccc2ccccc2c1			20 (unit not given), pH 7.4		IC50	> 50 µM
Cc1cn2c(C(=O)NCc3ccc(C(F)(F)F)cc3)c(C)nc2s1	inhibitor				IC50	> 20 µM
O=C1Cc2cc(CCN3CCN(C4=NS(=O)(=O)c5ccccc54)CC3)c(Cl)cc2N1		human liver microsomes	10 µM, pH 7.4, together with: midazolam		inhibition	< 0%
COc1ccc(F)cc1S(=O)(=O)Nc1cnc2c(c1)C(=O)NCCO2	inhibitor	human liver microsomes	together with: midazolam		IC50	> 100 µM
CCn1ccc(-c2cc(-c3cnn(C)c3)cc([C@@H](C)NC(=O)c3cc(OCCN(C)C)ccc3C)c2)n1	enzyme activity, inhibitor	pooled human liver microsomes	10 (unit not given)		IC50	> 50 µM
O=C(NC(CSC(Cc1ccccc1)C(=O)NCCCc1cccnc1)Cc1ccc(-c2ccccc2)cc1)c1cccnc1 (stereo not drawn)	binding, absorbance		pH 7.4		Kd	0.053 µM
CC(c1ccc(Cl)cc1F)N1CCCC(n2c(=O)[nH]c3cc(Cl)c(Cl)cc32)CC1 (stereo not drawn)			10 µM, 10 (unit not given)		inhibition	< 10%
CCCS(=O)(=O)c1ccc2[nH]c(NC(=O)OC)nc2c1		human liver microsomes	10 µM, pH 7.4, together with: midazolam		inhibition	< 0%
CCN(CC)CCNC(=O)c1c(C)[nH]c(C=C2C(=O)Nc3ccc(O)cc32)c1C	metabolite	recombinant enzyme	10 min, enzyme 20 nM, together with: sunitinib 0.05 to 50 µM, glutathione 5 mM		relative kcat/Km	0.03 ± 0.01
CCC1CC2C(C)=CC3C(=O)CCCC3C=CC(C)=CC2C(=O)O1 (stereo not drawn)		human liver microsomes	10 µM, 10 min, pH 7.4, together with: midazolam 0.1 µM	reference: untreated	remaining activity	113%
Cc1c(NC(=O)c2ccc3c(c2)CC[C@@H]2C[C@@](O)(C(F)(F)F)CC[C@@]32Cc2ccccc2)ccc[n+]1[O-]	enzyme activity, reversible inhibitor	pooled human liver microsomes	together with: midazolam 1'-hydroxylation		IC50	> 100 µM
C=C(C)[C@@H]1CCC(C(=O)O)=C[C@H]1c1c(O)cc(CCCCC)cc1O		human	750 mg single dose		half-life	24.6 h
CNC(=O)Oc1cc(C)c(S(C)(=O)=O)c(C)c1		human liver microsomes	10 µM, pH 7.4, together with: midazolam		inhibition	< 0%
COc1ccc2cc(NC(=O)c3cc(-c4ccccn4)nc4ccccc34)ccc2c1	substrate, LC-MS, item: hydroxylated metabolite M1	baculosomes			Km	2.5 µM
O=C(NC(CSC(Cc1ccccc1)C(=O)NCCCc1cccnc1)Cc1c[nH]c2ccccc12)c1cccnc1 (stereo not drawn)	thermal stability				ΔTm	6.3 °C
CC(C)(O)c1ccccc1CC[C@H](c1cccc(/C=C/c2ccc3ccc(Cl)cc3n2)c1)[S+]([O-])CC1(CC(=O)O)CC1 (stereo partly drawn)		human liver fractions	1 µM, 30 min, pH 7.4		metabolised	0%

Some of these lines once more:
SMILES	test	system	conditions	scale	measurement	value
CC(=O)OC1(C(C)=O)CCC2C3C=C(CO)C4=CC(=O)CCC4(C)C3CCC21C (stereo not drawn)	substrate	recombinant enzyme	28 µM, 25 min		formation rate	4.5 ± 0.3 pmol/min/pmol P450
Nc1nc(Nc2ccc(Cl)cc2)nn1S(=O)(=O)c1ccc2ccccc2c1			20 (unit not given), pH 7.4		IC50	> 50 µM
